Measurements collected from several papers.
Compare with care: the assays were run in different laboratories. Values joined by “and” are separate records of one study, mostly repeats; a detail may differ. ± marks the error that the study gave.

Compound | system | conditions | scale | body weight
COc1cccc2c1C(=O)c1c(O)c3c(c(O)c1C2=O)C[C@@](O)(C(=O)CO)C[C@@H]3O[C@H]1C[C@H](N)[C@H](O)[C@H](C)O1 | BALB/c mice, 4T1 tumour model | 2 mg/kg, day 0 | – | 19 ± 0.28 g
CCc1c(C)nc(-c2ccc(Cl)s2)nc1Nc1ccc(CC(=O)O)cc1 | mice, chronic ethanol plus binge | intraperitoneal, 0.3 mg/kg daily, ethanol diet 4 weeks, dosed last two | relative to: vehicle | no effect
O=C1NC(=O)/C(=C/c2ccc3ncnc(N4CCCCC4)c3n2)S1 | NSG mice | dose not given, day 4 | – | 19.4 g and 14.4 g and 21 g and 16.7 g
Cc1cnc(Nc2ccc(OCCN3CCCC3)cc2)nc1Nc1cccc(S(=O)(=O)NC(C)(C)C)c1 | BALB/c mice, rhEPO-induced polycythemia | 120 mg/kg, day 0 | – | 18 g and 19.4 g and 17.8 g and 19.2 g and 18.4 g and 18.3 g
COc1cc(N2CCC(N3CCN(C)CC3)CC2)ccc1Nc1ncc(Cl)c(Nc2ccccc2P(C)(C)=O)n1 | nude mice, NCI-H3122 xenograft | intraperitoneal, 10 mg/kg every other day, day 1 | – | 20.1 g and 23.3 g and 23.5 g and 22.1 g and 24.1 g
CCc1nn(C)c2nc(-c3ccc(C(=O)O)cc3)nc(NCc3ccc(F)cc3)c12 | NSG mice | dose not given, day 8 of treatment | – | 20.3 g and 22 g and 21.2 g and 17.6 g
C1=C/COCc2cc(ccc2OCCN2CCCC2)Nc2nccc(n2)-c2cccc(c2)COC/1 | BALB/c mice, rhEPO-induced polycythemia | 120 mg/kg, day 2 | – | 20.1 g and 19 g and 18.2 g and 18.7 g and 18.9 g
CCc1cnc(NC(=O)c2cc(S(=O)(=O)N3CCOCC3)ccc2N(C)C2CCCC2)s1 | mice bearing H1975-OR xenografts | dose not given | – | not toxic
CCN1CCN(C(=O)c2ccc(-n3nc(-c4cccnc4)c4c3-c3sc(NC(C)=O)nc3CC4)cc2)CC1 | NSG mice | dose not given, day 2 | – | 19.7 g and 19.8 g and 16.1 g and 18.8 g

A few entries again:
Compound | system | conditions | scale | body weight
Cc1cnc(Nc2ccc(OCCN3CCCC3)cc2)nc1Nc1cccc(S(=O)(=O)NC(C)(C)C)c1 | BALB/c mice, rhEPO-induced polycythemia | 120 mg/kg, day 0 | – | 18 g and 19.4 g and 17.8 g and 19.2 g and 18.4 g and 18.3 g
